Experimental data from different studies.
Numbered parts are unrelated; each lists some results of a single study. Positions count from the first letter of the parent shown.
Sequence of UniProt P62837 (whole entry, looked up): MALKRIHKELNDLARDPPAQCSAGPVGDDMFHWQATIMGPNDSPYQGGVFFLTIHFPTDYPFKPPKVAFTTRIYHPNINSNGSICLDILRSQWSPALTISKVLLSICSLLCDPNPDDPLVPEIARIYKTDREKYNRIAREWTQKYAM

Series 1 — target: CCNE2, cyclin fold, Cln2 fusion (human); method: yeast growth competition, sequencing; matrix: yeast; setting: strong parent motif; relative to: not given; reading: higher = stronger binding
Starting sequence: viral docking peptide; YKVKRRLVFGADD; partner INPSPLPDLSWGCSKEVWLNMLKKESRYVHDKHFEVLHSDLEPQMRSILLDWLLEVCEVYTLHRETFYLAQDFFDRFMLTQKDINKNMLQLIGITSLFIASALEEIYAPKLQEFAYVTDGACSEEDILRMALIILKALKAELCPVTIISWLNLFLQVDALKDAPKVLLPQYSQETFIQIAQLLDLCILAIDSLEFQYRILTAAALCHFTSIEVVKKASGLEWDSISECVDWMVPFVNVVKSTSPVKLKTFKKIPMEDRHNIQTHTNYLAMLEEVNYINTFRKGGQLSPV
Substitution	normalised enrichment score
R6V	4.33
V3K	0.459
L7I	3.18
F9L	1.37
F9D	0.661
R5T	0.593
V3C	4.58
F9Y	1.61
V8G	1.48
V3D	0.392
R5G	0.581
F9T	0.803
L7K	0.712
G10P	5.27
G10C	5.1
F9I	0.813
V8C	5.07
K2T	6.33
R5Y	0.453
R6H	1.28
A11S	6.08
K2C	5.58
R6P	0.269
V8P	0.9
G10A	5.34

Series 2 — observed: peptide-MHC binding; molecule type: peptide; tested at: concentration not given
Target: HLA class I histocompatibility antigen, A alpha chain, allele A*25:01 (Homo sapiens, UniProt P04439)
Sequence	binding
LPWFLDTTI	inactive
VWKQLFPEL	inactive
LPSSSSYSY	inactive
TSCAPMMQK	inactive

Series 3 — method: protein-binding microarray; molecule type: double-stranded DNA, one strand shown; matrix: in vitro; tested at: 2200 nM top; setting: 60-bp whole probe; with: salmon DNA 0.4 mg/ml; relative to: random background probes; reading: higher = stronger binding; all sequences stand within: GCCTAGCAC … GTCTTGATTCGCTTGACGCTGCTG
Target: Interferon regulatory factor 7, full length, phosphomimetic (IRF7, Homo sapiens, UniProt Q92985, residues 1-503, S471D/S472D/S475D/S476D/S477D/S483D/S484D/S487D)
Sequence of UniProt Q92985 (whole entry, unmodified, looked up): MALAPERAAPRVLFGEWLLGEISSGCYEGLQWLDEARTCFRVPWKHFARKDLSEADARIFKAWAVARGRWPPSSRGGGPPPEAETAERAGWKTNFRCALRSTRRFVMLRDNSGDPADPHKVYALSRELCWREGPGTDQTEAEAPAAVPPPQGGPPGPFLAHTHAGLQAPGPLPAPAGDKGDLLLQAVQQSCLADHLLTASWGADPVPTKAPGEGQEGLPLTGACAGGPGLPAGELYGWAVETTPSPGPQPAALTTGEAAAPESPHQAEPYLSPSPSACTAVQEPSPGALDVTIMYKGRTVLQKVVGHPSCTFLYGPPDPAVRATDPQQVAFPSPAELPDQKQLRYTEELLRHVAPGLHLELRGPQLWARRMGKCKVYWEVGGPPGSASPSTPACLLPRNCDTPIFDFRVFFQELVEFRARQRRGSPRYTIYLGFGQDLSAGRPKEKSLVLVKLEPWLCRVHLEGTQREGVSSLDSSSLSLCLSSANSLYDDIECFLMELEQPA
Sequence	fitted relative affinity [z-score]
GTCGGACTGCTACTGCTGACGTGCTAG	0.143
GACGGTATCCTTTTCCTAACGTGCTAG	1.38
GACGGTATCGGGTATCGGCACGTGCTA	-0.111
GACGAACTGAGTTTCGCGACGTGCTAG	0.963
GACGCTTCCCTTTTCCTGACGTGCTAG	3.05
GACAGACTGCTTTTCCTGACGTGCTAG	0.752
TTAGATATCAGACTGGATAAGTGCTAG	-0.327
TTAGGTTTCCTTTTCCTTTGGTGCTAG	7.11

Series 4 — method: protein-binding microarray; molecule type: double-stranded DNA, one strand shown; matrix: in vitro; tested at: not given; reading: higher = stronger binding
Target: Transcription factor Sp1 (SP1, Homo sapiens, UniProt P08047, residues 1-785, full length assumed)
Sequence of UniProt P08047 (whole entry, looked up): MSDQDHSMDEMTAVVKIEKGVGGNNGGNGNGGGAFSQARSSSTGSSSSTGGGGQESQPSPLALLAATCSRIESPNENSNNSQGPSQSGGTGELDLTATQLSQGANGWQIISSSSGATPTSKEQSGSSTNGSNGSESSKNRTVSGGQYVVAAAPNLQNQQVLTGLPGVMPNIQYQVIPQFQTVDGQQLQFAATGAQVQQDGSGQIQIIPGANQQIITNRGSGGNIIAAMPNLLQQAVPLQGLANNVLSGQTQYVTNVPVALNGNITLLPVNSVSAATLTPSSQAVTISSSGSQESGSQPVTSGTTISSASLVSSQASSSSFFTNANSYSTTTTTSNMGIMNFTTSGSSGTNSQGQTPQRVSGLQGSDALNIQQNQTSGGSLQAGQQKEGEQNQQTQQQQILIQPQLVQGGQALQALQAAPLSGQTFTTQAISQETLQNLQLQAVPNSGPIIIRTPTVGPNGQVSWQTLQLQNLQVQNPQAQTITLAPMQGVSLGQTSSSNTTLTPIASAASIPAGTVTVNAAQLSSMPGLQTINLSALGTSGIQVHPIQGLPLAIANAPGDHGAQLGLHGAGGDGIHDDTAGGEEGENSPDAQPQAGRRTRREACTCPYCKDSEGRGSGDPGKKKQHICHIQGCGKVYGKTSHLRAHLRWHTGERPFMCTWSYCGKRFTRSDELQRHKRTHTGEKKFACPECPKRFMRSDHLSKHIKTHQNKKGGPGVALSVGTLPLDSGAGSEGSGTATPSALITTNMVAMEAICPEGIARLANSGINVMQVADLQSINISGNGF
Setting: k-mer, scored over probes, only values ≥0.25
Sequence	E-score
GGAGGGGA	0.474
AGGGGTGG	0.449
ACTCCCCC	0.277
CCGCCTAC	0.362
AAACGCCC	0.264
AACCCCTT	0.308
TATATATA	0.288
GTCTAGTA	0.283

Other studies, line by line
B1: TRIM22 RING domain (UniProt Q8IYM9); chain KEVKMSPQEGQKRDVCEHHGKKLQIFCKEDGKVICWVCELSQEHQGHQTFRINEVVKECQEK
Molecule	target or system	test	system	conditions	scale	measurement	result
RPLP2 (Homo sapiens, UniProt P05387)	RPLP0 (Homo sapiens, UniProt P05388)	cross-linking MS	cell fractions	with: DMTMM		cross-linked residues	K61 to D271
B1 (TRIM22 RING domain)	UBE2D2 UBC core domain (UniProt P62837)	yeast two-hybrid	yeast	mostly zero background	relative to: not given, higher = stronger interaction	lacZ reporter activity	0
TRIM40 (Homo sapiens, UniProt Q6P9F5)	PHB2 (Homo sapiens, UniProt Q99623)	cross-linking MS	cell fractions	with: DMTMM		cross-linked residues	K141 to E233
NUP214 (Homo sapiens, UniProt P35658)	NUP62 (Homo sapiens, UniProt P37198)	cross-linking MS	cell fractions	with: DMTMM		cross-linked residues	E813 to K445
ANKRD17 (Homo sapiens, UniProt O75179)	FRAS1 (Homo sapiens, UniProt Q86XX4)	cross-linking MS	cell fractions	with: DSSO		cross-linked residues	K828 to K2217
